Measured values pooled from the literature.
“And” joins repeats or separate records; there may be more than shown. ± marks the error that the study gave.
OXA-48: Beta-lactamase OXA-48 (OXA-48, Klebsiella pneumoniae, UniProt Q6XEC0)
Bcl-2-related protein A1 C113S/P104K: Bcl-2-related protein A1 (Mus musculus, UniProt Q07440, C113S/P104K)
OXA-58: Beta-lactamase OXA-58 (OXA-58, Acinetobacter baumannii, UniProt Q2TR58)
guaB: Inosine-5'-monophosphate dehydrogenase (guaB, Staphylococcus aureus, UniProt Q2YVL6)
Enpp1: Ectonucleotide pyrophosphatase/phosphodiesterase family member 1 (Enpp1, Mus musculus, UniProt P06802)
CNR2: Cannabinoid receptor 2 (CNR2, Homo sapiens, UniProt P34972)

By UniProt entry, the sequences of proteins in these tests, tags left out. Residues count along the entry.
UniProt Q6XEC0, 23-265 limits assumed: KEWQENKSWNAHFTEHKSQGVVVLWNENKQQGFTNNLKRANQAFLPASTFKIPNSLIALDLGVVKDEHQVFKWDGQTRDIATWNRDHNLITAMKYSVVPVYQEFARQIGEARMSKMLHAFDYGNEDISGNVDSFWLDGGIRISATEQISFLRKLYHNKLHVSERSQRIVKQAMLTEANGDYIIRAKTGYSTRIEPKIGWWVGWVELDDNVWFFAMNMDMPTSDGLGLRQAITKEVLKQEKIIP
UniProt Q07440, whole entry P104K/C113S, looked up: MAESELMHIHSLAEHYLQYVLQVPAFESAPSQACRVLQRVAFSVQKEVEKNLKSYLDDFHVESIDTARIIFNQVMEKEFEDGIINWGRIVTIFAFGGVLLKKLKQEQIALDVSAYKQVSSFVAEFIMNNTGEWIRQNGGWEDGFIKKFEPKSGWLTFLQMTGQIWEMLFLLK
UniProt Q2TR58, 19-280 limits assumed: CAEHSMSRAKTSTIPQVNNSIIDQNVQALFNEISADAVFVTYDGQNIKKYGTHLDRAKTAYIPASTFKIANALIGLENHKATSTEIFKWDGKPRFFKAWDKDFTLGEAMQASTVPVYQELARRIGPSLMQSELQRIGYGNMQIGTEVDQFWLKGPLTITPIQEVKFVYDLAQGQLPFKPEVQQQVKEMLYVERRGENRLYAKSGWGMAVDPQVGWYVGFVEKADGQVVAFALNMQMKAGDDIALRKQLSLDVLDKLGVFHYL
UniProt Q2YVL6, whole entry: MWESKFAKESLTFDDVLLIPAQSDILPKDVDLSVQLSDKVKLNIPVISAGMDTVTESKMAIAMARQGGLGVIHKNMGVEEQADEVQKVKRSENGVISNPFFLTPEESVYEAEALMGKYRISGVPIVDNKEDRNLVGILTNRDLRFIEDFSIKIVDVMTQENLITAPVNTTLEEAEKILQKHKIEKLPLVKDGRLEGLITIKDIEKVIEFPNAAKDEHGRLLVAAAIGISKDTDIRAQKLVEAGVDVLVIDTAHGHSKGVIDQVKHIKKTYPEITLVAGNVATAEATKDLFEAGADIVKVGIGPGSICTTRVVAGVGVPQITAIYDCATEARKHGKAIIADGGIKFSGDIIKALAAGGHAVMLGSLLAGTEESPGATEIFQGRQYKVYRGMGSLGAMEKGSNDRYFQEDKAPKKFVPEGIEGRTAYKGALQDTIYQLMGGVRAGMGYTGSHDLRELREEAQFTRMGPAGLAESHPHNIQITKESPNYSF
UniProt P06802, 92-905 isoform 2 limits assumed: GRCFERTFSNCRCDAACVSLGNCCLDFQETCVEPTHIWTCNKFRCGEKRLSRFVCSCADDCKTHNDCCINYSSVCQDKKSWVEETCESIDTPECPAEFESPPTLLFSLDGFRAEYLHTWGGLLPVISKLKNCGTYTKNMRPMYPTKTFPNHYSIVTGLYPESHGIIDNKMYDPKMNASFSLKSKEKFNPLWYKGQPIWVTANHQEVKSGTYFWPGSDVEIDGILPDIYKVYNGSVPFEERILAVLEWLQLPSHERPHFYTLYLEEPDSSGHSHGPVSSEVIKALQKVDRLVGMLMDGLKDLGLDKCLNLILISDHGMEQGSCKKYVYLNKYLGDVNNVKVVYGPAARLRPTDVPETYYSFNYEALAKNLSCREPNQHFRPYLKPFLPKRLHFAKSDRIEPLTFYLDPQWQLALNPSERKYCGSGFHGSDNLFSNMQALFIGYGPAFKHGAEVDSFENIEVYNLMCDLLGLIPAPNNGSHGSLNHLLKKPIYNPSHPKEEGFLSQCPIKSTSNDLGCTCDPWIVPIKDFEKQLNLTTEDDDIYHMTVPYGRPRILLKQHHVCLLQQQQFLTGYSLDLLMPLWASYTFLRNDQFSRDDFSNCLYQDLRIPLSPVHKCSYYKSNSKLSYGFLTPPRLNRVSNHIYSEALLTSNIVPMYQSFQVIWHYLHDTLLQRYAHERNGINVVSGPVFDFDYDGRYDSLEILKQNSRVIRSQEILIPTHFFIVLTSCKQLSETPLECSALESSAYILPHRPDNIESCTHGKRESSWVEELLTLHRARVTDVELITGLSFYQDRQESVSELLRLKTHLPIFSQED
UniProt P34972, whole entry: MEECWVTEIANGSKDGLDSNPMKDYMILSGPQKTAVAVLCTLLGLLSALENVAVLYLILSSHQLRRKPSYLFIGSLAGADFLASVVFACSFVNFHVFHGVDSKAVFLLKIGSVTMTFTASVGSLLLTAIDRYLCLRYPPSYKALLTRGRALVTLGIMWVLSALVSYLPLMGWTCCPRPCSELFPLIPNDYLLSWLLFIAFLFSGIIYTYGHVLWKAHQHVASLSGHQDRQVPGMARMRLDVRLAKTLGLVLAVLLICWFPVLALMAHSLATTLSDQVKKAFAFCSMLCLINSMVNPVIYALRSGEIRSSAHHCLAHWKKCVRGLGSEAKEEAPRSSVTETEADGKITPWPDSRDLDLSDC
UniProt P0A017, whole entry: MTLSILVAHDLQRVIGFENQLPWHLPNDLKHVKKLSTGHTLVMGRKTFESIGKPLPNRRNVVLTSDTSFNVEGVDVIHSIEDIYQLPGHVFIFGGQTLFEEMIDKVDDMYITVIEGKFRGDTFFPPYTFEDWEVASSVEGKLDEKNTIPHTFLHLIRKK
UniProt P21554, whole entry: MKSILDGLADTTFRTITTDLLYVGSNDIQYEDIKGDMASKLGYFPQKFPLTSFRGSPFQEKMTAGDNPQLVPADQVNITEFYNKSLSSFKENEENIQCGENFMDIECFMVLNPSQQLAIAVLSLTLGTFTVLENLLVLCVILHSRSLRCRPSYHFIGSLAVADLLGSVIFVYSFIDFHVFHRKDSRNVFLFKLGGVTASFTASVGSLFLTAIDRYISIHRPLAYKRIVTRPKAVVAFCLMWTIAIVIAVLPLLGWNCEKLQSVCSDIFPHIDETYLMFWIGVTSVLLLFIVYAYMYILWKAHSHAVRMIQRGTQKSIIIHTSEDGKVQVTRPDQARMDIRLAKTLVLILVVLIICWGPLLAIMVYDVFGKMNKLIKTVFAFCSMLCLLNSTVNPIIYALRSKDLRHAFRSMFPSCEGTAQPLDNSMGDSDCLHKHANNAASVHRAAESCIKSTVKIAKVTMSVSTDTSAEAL
UniProt P0A6K3, whole entry: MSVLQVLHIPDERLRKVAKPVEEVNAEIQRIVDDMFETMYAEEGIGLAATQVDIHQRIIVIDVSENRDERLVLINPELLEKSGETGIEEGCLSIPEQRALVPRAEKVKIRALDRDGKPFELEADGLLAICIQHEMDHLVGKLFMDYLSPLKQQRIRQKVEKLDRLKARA
UniProt P00811, whole entry, looked up: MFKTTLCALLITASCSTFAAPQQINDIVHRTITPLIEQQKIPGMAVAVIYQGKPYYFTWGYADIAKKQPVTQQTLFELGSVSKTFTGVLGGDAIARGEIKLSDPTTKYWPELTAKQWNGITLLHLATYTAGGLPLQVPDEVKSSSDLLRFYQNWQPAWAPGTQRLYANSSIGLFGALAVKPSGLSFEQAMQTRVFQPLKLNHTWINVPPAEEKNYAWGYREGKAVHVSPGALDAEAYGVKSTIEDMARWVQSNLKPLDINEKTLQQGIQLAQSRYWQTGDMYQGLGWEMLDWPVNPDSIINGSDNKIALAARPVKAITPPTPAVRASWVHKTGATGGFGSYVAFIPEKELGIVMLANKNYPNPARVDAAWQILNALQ
UniProt P35462, whole entry: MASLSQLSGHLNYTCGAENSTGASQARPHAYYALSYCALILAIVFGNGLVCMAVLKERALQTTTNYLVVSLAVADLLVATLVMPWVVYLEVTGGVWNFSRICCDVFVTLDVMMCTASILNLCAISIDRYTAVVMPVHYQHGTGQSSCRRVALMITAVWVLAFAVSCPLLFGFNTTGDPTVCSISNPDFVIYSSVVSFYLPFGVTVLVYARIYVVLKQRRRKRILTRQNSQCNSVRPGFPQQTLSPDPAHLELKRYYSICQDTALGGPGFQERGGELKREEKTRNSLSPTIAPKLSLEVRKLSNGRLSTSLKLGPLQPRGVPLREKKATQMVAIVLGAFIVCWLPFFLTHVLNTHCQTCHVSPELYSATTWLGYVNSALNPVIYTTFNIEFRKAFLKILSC
UniProt Q8RLA6, 21-275 limits assumed: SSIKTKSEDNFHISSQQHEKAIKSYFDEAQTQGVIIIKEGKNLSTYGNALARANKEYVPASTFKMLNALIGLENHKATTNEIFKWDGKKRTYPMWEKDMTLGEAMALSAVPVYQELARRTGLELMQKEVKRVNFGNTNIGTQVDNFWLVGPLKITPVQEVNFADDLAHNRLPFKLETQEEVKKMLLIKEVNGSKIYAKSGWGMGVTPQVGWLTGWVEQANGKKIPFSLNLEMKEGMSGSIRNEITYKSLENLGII
UniProt Q04430, whole entry: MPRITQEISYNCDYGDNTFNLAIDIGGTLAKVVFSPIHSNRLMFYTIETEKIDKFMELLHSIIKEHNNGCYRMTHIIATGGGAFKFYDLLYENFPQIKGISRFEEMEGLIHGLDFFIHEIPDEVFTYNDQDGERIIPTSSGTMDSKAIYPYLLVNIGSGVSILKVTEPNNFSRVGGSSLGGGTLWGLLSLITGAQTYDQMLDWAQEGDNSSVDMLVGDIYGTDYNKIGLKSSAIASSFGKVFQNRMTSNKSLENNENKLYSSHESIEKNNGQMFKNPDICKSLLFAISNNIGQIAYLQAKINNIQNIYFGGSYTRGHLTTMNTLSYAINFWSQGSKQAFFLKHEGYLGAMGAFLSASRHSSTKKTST
UniProt P13955, whole entry: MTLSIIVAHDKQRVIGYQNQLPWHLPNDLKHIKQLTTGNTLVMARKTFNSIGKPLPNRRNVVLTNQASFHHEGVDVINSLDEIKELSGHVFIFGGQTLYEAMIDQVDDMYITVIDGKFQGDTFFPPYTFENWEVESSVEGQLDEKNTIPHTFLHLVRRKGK
UniProt Q8I719, whole entry: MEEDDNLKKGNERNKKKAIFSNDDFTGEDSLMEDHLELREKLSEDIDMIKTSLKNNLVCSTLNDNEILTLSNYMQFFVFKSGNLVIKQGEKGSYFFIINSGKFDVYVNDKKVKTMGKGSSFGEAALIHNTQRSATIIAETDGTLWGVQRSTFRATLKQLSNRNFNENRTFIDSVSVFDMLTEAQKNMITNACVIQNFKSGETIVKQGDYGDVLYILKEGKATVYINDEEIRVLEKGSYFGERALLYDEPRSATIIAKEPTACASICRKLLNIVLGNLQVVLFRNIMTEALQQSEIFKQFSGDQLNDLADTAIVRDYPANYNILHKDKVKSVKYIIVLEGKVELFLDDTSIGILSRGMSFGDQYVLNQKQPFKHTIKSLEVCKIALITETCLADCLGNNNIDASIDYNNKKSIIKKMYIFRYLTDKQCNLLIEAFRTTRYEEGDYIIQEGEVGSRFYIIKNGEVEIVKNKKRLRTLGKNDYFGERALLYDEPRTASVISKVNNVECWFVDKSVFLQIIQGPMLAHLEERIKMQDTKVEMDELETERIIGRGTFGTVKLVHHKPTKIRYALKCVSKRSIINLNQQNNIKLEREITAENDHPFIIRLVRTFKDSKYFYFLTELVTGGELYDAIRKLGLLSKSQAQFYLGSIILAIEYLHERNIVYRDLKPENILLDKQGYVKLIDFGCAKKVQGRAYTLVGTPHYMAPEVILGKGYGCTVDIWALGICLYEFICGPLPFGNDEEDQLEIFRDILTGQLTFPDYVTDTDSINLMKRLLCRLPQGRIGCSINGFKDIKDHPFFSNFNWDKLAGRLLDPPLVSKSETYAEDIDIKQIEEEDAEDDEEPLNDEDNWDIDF
UniProt P05067, 672-713 limits assumed: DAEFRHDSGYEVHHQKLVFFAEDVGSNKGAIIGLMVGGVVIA
UniProt Q8IC05, 1-745: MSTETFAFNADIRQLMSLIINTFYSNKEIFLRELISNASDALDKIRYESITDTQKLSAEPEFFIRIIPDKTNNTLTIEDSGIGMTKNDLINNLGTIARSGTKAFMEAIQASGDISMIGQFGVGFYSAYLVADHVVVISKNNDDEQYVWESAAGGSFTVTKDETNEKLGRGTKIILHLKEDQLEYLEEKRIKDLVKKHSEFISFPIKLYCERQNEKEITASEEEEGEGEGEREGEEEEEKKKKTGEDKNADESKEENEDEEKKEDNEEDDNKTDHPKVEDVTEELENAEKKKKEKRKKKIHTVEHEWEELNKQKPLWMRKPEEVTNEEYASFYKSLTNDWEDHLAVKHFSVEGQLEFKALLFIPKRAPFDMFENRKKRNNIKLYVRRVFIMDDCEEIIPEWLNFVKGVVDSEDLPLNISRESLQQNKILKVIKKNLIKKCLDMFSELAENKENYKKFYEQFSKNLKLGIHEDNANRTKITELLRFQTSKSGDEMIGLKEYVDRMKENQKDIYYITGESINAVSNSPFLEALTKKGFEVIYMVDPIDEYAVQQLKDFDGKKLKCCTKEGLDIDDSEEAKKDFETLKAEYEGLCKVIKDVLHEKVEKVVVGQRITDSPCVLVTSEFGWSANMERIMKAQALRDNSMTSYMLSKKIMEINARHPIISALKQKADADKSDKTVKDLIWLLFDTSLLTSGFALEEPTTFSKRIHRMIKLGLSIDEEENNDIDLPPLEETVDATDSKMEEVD

Compound	target	test	test system	conditions	Ki
CCc1nc(N)nc(N)c1C#CC(C)c1cc2c(c(-c3ccc(C(=O)O)cc3)c1)OCO2 (stereo not drawn)	folA (Staphylococcus aureus, UniProt P0A017)	inhibitor	–	–	1.17 ± 0.02 nM
O=C(O)C(Cc1nn[nH]n1)[C@@H]1CCN[C@H]1C(=O)O (relative stereo)	native NMDA receptor, rat	binding	rat cortical synaptosomes	together with: [3H]CGP 39653	210 nM
COc1ccc(S(=O)(=O)N(CC(C)C)C[C@@H](O)[C@H](Cc2ccccc2)NC(=O)O[C@H]2CO[C@H]3C[C@H]4OCC[C@H]4[C@H]32)cc1	Gag-Pol polyprotein, protease (gag-pol, Human immunodeficiency virus type 1 group M subtype B, UniProt P04585)	protease activity, inhibitor	–	–	1.43 nM
C[C@@H]1CN(C)CCN1c1nc(-c2ccc(F)cc2)cs1	SLC6A3 (Homo sapiens, UniProt Q01959)	–	–	–	7000 nM
O=C(NC1CCN(c2ncnc3c2nc(-c2ccccc2Cl)n3-c2ccc(Cl)cc2)CC1)C1CCCCC1	CNR1 (Homo sapiens, UniProt P21554)	binding, radioligand displacement	CHO cell membranes	together with: [3H]CP55940	3 nM
O=C(O)c1ccc(-c2cccc(C(=O)O)c2)cc1	OXA-48	enzyme activity, inhibitor	–	–	0.4 µg/mL
Nc1nnc(SSc2nnc(N)s2)s1	Peptide deformylase (def, Escherichia coli, UniProt P0A6K3)	enzyme activity, slow-binding inhibitor	–	average direct and calculated	3000 nM
Cc1cc(O)nc2ccc(NS(=O)(=O)c3cc(Cl)cc(Cl)c3O)cc12	Beta-lactamase (ampC, Escherichia coli K-12, UniProt P00811)	inhibitor, three-point inhibition	–	0.01% Triton X-100	7330 nM
O=C(Cc1cccs1)NC(B(O)O)c1cccc(C(=O)O)c1 (stereo not drawn)	ADC-7 beta-lactamase (Acinetobacter baumannii, UniProt Q6DRA1)	inhibitor	–	pH 7.4, room temperature, together with: nitrocefin substrate	11 ± 1 nM
Nc1nc2c(ncn2[C@@H]2CC[C@H](OC(C(=O)O)P(=O)(O)O)C2)c(=O)[nH]1 (relative stereo)	Gag-Pol polyprotein, reverse transcriptase (gag-pol, Human immunodeficiency virus type 1 group M subtype B, UniProt P04585)	competitive inhibitor	–	together with: varying dGTP, poly rC.dG	362 nM
O=[N+]([O-])c1ccc(N=Nc2c(S(=O)(=O)O)cc3cc(S(=O)(=O)O)ccc3c2O)c([N+](=O)[O-])c1	Bcl-2-related protein A1 C113S/P104K	binding, inhibitor, fluorescence polarization	–	together with: FITC-labelled Noxa peptide	2320 nM
Cc1cc(C)c(Nc2nc(Nc3ccc(C#N)cc3)nc(OCCCN3CCOCC3)n2)c(C)c1	Gag-Pol polyprotein, reverse transcriptase (gag-pol, Human immunodeficiency virus 1, UniProt P03366)	nucleotide incorporation, inhibitor, pre-steady-state burst	–	together with: dATP	14 ± 4 nM
O=S(=O)(O)c1ccc2cc(S(=O)(=O)O)ccc2c1	OXA-58	enzyme activity, inhibitor	–	enzyme 0.1 nM, together with: nitrocefin 30 µM	> 100000 nM and 120000 nM
COc1ccccc1N1CCN(CCCCN2CCCc3ccccc3C2=O)CC1	DRD3 (Homo sapiens, UniProt P35462)	radioligand competition binding	–	together with: [3H]N-methylspiperone	0.7 nM
O=S(=O)(O)c1ccc(-c2ccc(S(=O)(=O)O)cc2)cc1	Beta-lactamase (blaOXA-33, Acinetobacter baumannii, UniProt Q8RLA6)	enzyme activity, inhibitor	–	enzyme 0.2 nM, together with: nitrocefin 30 µM	70000 ± 3000 nM
CC(C)(C)c1ccc(CNc2nc3[nH]c(CN4CCCCC4)cc(=O)n3n2)cc1	CAB1 (Saccharomyces cerevisiae, UniProt Q04430)	enzyme activity, inhibitor, ADP-Glo, Lineweaver-Burk	–	together with: ATP 1000 µM	76 nM
CC(C)(NC(=O)Nc1ccc(Cl)c(-c2nc(C(F)(F)F)cs2)c1)c1cccc(C(N)=NO)c1	guaB	inhibitor	–	together with: 1000 µM IMP and 1000 µM NAD+	10 ± 2 nM
COc1cc2ncnc(NCc3ccc(CP(=O)(O)O)cc3)c2cc1OC	Enpp1	enzyme activity, inhibitor, coupled luciferase AMP detection	–	pH 7.4, together with: cGAMP 5 µM	26 nM

Compound	target	test	test system	conditions	Ki
CCCCCCCCCCCCNC(=O)N[C@H](C(=O)N[C@H]1/C=C/CCNC(=O)/C=C/[C@H](C)NC1=O)C(C)C	PSMB6 (Homo sapiens, UniProt P28072)	caspase-like activity, inhibitor, Proteasome-Glo	ARD	24 h	138 ± 52 nM
COc1ccc2[nH]cc(CCN(C)Cc3cccc(Br)c3)c2c1	HTR2A (Homo sapiens, UniProt P28223)	binding	–	–	> 10000 nM
O[C@H](c1ccc(F)cc1)C(F)(F)CCN1CCC(O)(c2ccc(Cl)cc2)CC1 (racemic)	DRD4 (Homo sapiens, UniProt P21917)	–	–	–	36.9 ± 2.9 nM
CC(C)(NC(=O)Nc1ccc(Cl)cc1)c1cccc(C(=N)NO)c1	guaB	inhibitor	–	together with: 1000 µM IMP and 1000 µM NAD+	21.5 ± 0.2 nM
CCc1nc(N)nc(N)c1C#CC(C)c1cc2c(c(-c3ccc(CC(=O)O)cc3)c1)OCO2 (stereo not drawn)	Dihydrofolate reductase type 1 from Tn4003 (Staphylococcus aureus, UniProt P13955)	inhibitor	–	–	10.4 ± 0.8 nM
O=S(=O)(O)c1ccc2c(c1)Cc1cc(S(=O)(=O)O)ccc1-2	OXA-58	enzyme activity, inhibitor	–	enzyme 0.1 nM, together with: nitrocefin 30 µM	3400 ± 300 nM
CS(=O)(=O)Cc1onc(-c2cccc(Cl)c2)c1-c1ccnc(N[C@@H]2CCN(Cc3nccs3)C2)n1	cGMP-dependent protein kinase (PKG, Plasmodium falciparum, UniProt Q8I719)	kinase activity, inhibitor, IMAP	–	–	44.6 ± 7.5 nM
O=C(CC1CCCC1)NC1CCN(c2ncnc3c2nc(-c2ccccc2Cl)n3-c2ccc(Cl)cc2)CC1	CNR2	binding, radioligand displacement	CHO cell membranes	together with: [3H]CP55940	570 nM
COc1cc2c(cc1OC)C(=O)C(CC1CCN(Cc3cc(C=Cc4ccc(C=Cc5ccc(N(C)C)cc5)cc4)cc(OC)c3O)CC1)C2 (stereo not drawn)	Amyloid-beta precursor protein, Aβ42 fibrils (APP, Homo sapiens, UniProt P05067)	thioflavin T displacement, competition binding	Aβ42 aggregates 5 µM	together with: thioflavin T 2 µM	1300 ± 300 nM
CCOc1ccccc1N1CCN(c2ncnc(N3CCC(C(N)=O)CC3)n2)CC1	OXA-48	enzyme activity, inhibitor	–	together with: nitrocefin	> 50000 nM
COCCCNc1cc(C(=O)NC2CC3CCC(C2)N3c2ccc(C(=O)NCc3ccccc3)cn2)ccc1C(N)=O (stereo not drawn)	Heat shock protein 90 (Plasmodium falciparum, UniProt Q8IC05)	fluorescence polarization	–	full-length protein, together with: FITC-geldanamycin tracer	46 ± 6.8 nM
Nc1cc(S(=O)(=O)O)cc2cc(S(=O)(=O)O)cc(O)c12	OXA-48	enzyme activity, inhibitor	–	0.2 nM enzyme, together with: nitrocefin 30 µM	12000 nM and < 10000 nM and 11700 nM
CC(=O)c1cccc(C(C)(C)NC(=O)Nc2ccc(Cl)c(-c3nc(C(F)(F)F)cs3)c2)c1	guaB	inhibitor	–	together with: 1000 µM IMP and 1000 µM NAD+	25 ± 1 nM
Cc1c(C(=O)NN2CCCCC2)nn(-c2ccc(Cl)cc2Cl)c1-c1ccc(CCCCCBr)cc1	CNR2	radioligand displacement	–	together with: [3H]CP55,940	203 nM
CC(=NO)c1cccc(C(C)(C)NC(=O)Nc2ccc(Cl)c(-c3nc(C(F)(F)F)cs3)c2)c1	IMPDH 2, Staphylococcus aureus, G445S	inhibitor	–	together with: 500 µM NAD+, 1.0 mM IMP	1330 ± 30 nM
COc1ccc(NC(=O)CSc2nc3c(N)ncnc3[nH]2)cc1OC	Enpp1	enzyme activity, inhibitor, coupled luciferase AMP detection	–	pH 9, together with: cGAMP 5 µM	> 10000 nM
C=C(C)c1cccc(C(C)(C)NC(=O)Nc2ccc(Cl)c(N)c2)c1	guaB	inhibitor	–	together with: 1000 µM IMP and 1000 µM NAD+	12.8 ± 0.7 nM
Cc1ccc(N=Nc2c(O)ccc3cc(S(=O)(=O)O)ccc23)cc1	Bcl-2-related protein A1 C113S/P104K	binding, inhibitor, fluorescence polarization	–	together with: FITC-labelled Noxa peptide	6060 nM

Some of these lines once more:
Compound	target	test	test system	conditions	Ki
COc1ccc(S(=O)(=O)N(CC(C)C)C[C@@H](O)[C@H](Cc2ccccc2)NC(=O)O[C@H]2CO[C@H]3C[C@H]4OCC[C@H]4[C@H]32)cc1	Gag-Pol polyprotein, protease (gag-pol, Human immunodeficiency virus type 1 group M subtype B, UniProt P04585)	protease activity, inhibitor	–	–	1.43 nM
COc1ccccc1N1CCN(CCCCN2CCCc3ccccc3C2=O)CC1	DRD3 (Homo sapiens, UniProt P35462)	radioligand competition binding	–	together with: [3H]N-methylspiperone	0.7 nM
CC(=NO)c1cccc(C(C)(C)NC(=O)Nc2ccc(Cl)c(-c3nc(C(F)(F)F)cs3)c2)c1	IMPDH 2, Staphylococcus aureus, G445S	inhibitor	–	together with: 500 µM NAD+, 1.0 mM IMP	1330 ± 30 nM
CCOc1ccccc1N1CCN(c2ncnc(N3CCC(C(N)=O)CC3)n2)CC1	OXA-48	enzyme activity, inhibitor	–	together with: nitrocefin	> 50000 nM
